Measured values pooled from the literature.
Protocols differ between the studies behind these lines. ± marks the error that the study gave.
NOX5: NADPH oxidase 5 (NOX5, Homo sapiens, UniProt Q96PH1)
Chrna3/Chrnb2/Chrna6 with beta3 subunit: Chrna3/Chrnb2/Chrna6, with beta3 subunit (Rattus norvegicus, UniProt P04757+P12390+P43143)
Salicylate synthetase, Irp9: Salicylate synthetase, Irp9 (Yersinia enterocolitica, UniProt Q9X9I8)
CYBB: NADPH oxidase 2 (CYBB, Homo sapiens, UniProt P04839)
ache: Acetylcholinesterase (ache, Electrophorus electricus, UniProt O42275)

By UniProt entry, the sequences of proteins in these tests, tags left out. Residues count along the entry.
UniProt Q96PH1, 1-719 isoform 4: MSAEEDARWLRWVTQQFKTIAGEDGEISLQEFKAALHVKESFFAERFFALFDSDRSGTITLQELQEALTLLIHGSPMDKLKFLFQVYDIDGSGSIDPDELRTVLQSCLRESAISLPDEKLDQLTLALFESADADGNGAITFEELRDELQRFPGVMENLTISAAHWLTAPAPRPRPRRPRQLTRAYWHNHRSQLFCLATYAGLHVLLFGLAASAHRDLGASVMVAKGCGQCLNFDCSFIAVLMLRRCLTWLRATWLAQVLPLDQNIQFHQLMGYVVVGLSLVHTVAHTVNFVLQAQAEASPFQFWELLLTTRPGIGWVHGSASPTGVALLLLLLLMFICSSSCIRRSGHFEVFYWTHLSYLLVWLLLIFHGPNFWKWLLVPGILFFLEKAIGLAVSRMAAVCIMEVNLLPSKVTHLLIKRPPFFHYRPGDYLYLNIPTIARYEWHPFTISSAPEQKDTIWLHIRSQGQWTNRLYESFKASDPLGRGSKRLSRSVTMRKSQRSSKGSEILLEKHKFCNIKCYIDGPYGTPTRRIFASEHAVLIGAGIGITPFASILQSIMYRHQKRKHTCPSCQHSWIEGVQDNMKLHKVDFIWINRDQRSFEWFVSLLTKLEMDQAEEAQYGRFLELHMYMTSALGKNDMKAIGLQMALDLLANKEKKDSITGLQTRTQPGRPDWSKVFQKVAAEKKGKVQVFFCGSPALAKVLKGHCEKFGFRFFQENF
UniProt P04757, whole entry, looked up: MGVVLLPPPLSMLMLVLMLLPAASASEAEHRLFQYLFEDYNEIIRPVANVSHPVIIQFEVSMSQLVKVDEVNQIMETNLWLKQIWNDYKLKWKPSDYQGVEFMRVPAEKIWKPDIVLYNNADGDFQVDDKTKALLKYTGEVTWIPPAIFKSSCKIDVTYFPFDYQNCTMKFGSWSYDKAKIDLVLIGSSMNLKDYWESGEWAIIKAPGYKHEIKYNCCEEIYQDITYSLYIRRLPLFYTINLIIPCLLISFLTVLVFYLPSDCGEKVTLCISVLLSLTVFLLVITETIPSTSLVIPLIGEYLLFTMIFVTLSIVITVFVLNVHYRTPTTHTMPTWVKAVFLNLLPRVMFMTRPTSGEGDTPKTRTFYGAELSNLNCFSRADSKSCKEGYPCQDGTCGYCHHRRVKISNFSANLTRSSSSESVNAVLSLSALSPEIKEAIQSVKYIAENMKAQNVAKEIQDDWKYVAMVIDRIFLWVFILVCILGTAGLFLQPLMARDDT
UniProt P04757, 26-499 limits assumed: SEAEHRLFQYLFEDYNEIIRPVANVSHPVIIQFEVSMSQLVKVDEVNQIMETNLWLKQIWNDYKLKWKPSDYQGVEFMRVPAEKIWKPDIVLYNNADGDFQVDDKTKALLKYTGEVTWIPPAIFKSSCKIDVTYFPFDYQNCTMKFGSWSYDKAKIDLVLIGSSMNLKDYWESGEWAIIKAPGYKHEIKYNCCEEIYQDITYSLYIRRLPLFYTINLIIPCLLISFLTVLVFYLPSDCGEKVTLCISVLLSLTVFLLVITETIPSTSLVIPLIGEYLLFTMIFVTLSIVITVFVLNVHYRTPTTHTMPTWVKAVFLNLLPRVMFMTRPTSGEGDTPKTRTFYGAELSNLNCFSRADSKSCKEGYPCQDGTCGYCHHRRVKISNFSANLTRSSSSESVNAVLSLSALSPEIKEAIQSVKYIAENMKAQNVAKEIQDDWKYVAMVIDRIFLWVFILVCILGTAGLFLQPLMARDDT
UniProt P12390, whole entry, looked up: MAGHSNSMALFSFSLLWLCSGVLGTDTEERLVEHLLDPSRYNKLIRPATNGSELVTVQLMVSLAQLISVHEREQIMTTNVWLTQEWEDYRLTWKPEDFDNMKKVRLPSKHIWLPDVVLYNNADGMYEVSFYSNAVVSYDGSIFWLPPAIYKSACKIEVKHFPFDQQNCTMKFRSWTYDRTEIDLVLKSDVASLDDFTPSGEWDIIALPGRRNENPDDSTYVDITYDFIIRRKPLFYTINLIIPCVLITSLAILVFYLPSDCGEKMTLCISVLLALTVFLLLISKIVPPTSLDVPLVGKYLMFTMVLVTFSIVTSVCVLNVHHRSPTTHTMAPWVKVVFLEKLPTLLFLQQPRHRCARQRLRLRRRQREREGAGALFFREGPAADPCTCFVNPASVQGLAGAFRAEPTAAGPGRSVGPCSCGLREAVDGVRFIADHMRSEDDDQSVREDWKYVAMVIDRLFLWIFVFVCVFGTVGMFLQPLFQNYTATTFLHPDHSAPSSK
UniProt P43143, whole entry M241L/F253L/V303I/V320I/I327V/A333T/K339T, looked up: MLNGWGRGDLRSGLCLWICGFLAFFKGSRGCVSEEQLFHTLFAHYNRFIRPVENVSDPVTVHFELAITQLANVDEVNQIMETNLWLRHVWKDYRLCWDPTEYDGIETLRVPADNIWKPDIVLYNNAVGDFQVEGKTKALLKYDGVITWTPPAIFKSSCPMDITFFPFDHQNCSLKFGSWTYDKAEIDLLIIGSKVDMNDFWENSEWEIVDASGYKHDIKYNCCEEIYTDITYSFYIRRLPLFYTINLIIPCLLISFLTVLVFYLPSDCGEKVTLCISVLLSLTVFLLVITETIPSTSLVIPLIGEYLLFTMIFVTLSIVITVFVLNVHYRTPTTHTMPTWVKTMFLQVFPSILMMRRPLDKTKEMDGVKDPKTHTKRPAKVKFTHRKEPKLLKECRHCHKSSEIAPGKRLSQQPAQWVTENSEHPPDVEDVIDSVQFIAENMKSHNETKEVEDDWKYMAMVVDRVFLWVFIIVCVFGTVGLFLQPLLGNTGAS
UniProt Q9X9I8, 1-434: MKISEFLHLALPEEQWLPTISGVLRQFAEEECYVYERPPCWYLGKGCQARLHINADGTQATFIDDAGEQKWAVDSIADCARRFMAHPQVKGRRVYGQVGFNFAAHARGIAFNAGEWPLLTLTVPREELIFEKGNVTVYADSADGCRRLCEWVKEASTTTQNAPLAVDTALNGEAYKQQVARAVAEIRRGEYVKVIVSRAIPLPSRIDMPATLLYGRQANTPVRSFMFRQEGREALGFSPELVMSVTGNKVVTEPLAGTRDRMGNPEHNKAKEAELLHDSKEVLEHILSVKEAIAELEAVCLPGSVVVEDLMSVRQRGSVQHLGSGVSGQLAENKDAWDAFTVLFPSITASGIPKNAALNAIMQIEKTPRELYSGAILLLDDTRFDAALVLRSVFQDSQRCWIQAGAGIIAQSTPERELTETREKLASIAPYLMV
UniProt P04839, whole entry, looked up: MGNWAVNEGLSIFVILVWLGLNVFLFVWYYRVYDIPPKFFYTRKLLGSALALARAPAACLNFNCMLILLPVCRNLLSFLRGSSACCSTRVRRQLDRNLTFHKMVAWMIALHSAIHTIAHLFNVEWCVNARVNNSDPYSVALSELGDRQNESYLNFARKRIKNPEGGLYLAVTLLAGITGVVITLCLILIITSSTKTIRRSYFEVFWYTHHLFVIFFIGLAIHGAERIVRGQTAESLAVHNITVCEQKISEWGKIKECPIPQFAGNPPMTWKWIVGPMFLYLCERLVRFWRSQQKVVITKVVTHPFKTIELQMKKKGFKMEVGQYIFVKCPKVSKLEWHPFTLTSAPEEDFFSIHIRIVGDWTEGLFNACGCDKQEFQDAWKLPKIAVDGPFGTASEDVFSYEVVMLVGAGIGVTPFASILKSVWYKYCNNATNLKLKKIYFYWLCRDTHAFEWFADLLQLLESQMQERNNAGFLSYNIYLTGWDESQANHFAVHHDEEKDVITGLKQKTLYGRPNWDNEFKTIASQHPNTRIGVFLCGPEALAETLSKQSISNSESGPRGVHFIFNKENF
UniProt Q9Y5S8, whole entry: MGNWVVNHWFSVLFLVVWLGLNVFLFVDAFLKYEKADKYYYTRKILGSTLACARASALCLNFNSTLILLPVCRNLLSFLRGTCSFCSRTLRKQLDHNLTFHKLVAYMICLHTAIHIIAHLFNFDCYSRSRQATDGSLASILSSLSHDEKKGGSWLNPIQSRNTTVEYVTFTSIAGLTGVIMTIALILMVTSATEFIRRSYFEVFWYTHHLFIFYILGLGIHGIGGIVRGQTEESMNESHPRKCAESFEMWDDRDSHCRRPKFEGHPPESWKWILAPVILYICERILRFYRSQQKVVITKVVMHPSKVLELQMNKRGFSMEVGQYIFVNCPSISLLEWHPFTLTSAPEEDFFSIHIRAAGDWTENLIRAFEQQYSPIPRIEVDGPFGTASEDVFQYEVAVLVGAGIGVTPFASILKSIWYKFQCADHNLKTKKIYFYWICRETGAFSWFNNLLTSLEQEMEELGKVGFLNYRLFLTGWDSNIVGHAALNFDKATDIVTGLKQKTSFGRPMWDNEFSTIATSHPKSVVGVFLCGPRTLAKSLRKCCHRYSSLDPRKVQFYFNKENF
UniProt P28223, whole entry: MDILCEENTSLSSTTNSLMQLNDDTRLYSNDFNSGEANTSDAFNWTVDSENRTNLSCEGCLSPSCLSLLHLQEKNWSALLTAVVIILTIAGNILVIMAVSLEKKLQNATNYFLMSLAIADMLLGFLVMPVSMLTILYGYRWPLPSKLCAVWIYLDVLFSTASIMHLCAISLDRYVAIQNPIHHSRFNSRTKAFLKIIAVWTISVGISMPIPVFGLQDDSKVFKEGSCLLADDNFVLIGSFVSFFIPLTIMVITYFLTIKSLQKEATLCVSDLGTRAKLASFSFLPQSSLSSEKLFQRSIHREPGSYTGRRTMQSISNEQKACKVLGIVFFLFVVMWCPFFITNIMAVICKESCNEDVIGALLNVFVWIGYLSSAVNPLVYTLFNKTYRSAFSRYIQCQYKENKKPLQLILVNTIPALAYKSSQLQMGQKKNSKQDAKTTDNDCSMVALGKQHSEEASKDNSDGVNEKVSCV
UniProt P9WGR1, whole entry: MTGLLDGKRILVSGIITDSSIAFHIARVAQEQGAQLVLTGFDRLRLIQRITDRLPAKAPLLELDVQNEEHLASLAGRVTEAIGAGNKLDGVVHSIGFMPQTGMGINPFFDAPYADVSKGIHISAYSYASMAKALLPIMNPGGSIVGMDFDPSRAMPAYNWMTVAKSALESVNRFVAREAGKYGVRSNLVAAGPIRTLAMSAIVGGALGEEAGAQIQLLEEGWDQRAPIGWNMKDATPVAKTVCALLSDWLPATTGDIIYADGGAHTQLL
UniProt C0LT34, 1-466: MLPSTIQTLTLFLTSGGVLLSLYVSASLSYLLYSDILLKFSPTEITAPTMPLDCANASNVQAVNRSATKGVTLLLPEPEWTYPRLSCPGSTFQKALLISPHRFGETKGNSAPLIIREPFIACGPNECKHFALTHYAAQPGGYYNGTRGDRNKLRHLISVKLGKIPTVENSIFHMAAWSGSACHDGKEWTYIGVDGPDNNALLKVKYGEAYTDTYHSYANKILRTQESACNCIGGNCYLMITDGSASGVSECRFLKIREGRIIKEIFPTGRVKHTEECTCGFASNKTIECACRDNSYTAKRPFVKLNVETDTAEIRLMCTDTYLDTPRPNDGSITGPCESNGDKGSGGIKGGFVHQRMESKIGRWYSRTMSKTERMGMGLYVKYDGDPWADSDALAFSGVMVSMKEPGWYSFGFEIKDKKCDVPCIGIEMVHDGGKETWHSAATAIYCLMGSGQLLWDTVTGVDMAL
UniProt Q8BLA8, whole entry: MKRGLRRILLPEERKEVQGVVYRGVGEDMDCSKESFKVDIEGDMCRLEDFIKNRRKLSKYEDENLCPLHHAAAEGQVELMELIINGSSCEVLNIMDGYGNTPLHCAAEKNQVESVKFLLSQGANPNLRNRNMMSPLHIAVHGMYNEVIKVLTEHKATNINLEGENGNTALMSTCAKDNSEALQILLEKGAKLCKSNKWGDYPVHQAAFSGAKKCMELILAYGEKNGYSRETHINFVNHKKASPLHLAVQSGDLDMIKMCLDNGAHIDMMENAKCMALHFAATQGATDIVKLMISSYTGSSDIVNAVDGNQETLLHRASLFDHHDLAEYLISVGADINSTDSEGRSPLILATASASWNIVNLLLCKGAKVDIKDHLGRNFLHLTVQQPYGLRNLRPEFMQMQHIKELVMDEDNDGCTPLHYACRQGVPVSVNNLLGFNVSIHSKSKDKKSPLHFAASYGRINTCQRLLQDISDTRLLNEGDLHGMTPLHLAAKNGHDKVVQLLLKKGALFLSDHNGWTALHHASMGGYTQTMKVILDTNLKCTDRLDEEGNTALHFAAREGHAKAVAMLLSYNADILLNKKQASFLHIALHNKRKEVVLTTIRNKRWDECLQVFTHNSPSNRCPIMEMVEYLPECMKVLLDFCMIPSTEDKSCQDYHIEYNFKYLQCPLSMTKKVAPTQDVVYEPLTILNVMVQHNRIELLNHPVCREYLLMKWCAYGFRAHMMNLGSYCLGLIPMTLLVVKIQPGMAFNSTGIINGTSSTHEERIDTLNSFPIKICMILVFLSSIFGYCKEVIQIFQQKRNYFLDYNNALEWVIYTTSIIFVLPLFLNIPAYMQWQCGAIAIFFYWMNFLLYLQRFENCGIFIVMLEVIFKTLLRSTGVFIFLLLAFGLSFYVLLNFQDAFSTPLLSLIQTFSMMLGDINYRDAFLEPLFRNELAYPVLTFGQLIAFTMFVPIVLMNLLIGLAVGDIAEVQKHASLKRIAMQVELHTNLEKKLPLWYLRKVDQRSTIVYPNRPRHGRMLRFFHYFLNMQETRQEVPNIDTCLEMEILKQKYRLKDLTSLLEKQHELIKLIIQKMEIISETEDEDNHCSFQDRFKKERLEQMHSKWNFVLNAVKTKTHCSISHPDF

Substance	target	test	system	conditions	IC50
Brc1ccc2nc(Sc3ncnc4c3nnn4Cc3ccccc3)oc2c1	NADPH oxidase 1 (NOX1, Homo sapiens, UniProt Q9Y5S8)	enzyme activity, inhibitor, Amplex Red	cell-free membranes		> 100000 nM
methyl arachidonyl fluorophosphonate	exoU (Pseudomonas aeruginosa, UniProt O34208)	phospholipase activity, irreversible inhibitor, PED6 fluorescence		room temperature, with: SOD1	13.8 ± 1.1 nM
c1ccc(Cn2nnc3c(Sc4nc5ccccc5[nH]4)ncnc32)cc1	NOX5	enzyme activity, inhibitor, Amplex Red	cell-free membranes		1700 ± 300 nM
CC(C)C[C@@H]1NC(=O)[C@H](CCC(=O)O)NC(=O)[C@@H]2CCCN2C(=O)[C@H](Cc2c[nH]cn2)NC(=O)[C@H](CCC(=O)O)NC(=O)[C@H](CC(C)C)NC(=O)[C@H](Cc2c[nH]cn2)NC(=O)[C@@H]2CSSC[C@H](NC(=O)CN)C(=O)N[C@@H](CSSC[C@@H](C(N)=O)NC1=O)C(=O)N[C@@H](CO)C(=O)N[C@@H](Cc1c[nH]cn1)C(=O)N1CCC[C@H]1C(=O)N[C@@H](C)C(=O)N2	Chrna3/Chrnb2/Chrna6 with beta3 subunit	ion current, antagonist, two-electrode voltage clamp	Xenopus laevis oocytes	with: 100 µM acetylcholine	16.2 nM
Clc1ccc2nc(Sc3ncnc4c3nnn4Cc3ccccc3)oc2c1	DUOX1 (Homo sapiens, UniProt Q9NRD9)	enzyme activity, inhibitor, Amplex Red	cell-free membranes		> 15000 nM
O=C(O)c1cc(S(=O)(=O)Nc2ccccc2C(=O)O)ccc1Br	Salicylate synthetase, Irp9	pyruvate production, inhibitor		25 °C, with: chorismate 10 µM	> 160000 nM
C=C(C)[C@@H]1[C@H]2OC(=O)[C@@H]1[C@]1(O)C[C@H]3O[C@]34C(=O)O[C@H]2[C@]14C	GABRG2/GABRA2/Gabrb2 (Homo sapiens, UniProt P18507+P47869+P63138)	chloride current, inhibitor, whole-cell voltage clamp	L929	3 min preincubation, with: GABA at EC90	11000 nM
COc1ccc2nc(Sc3ncnc4c3nnn4Cc3ccccc3)oc2c1	CYBB	enzyme activity, inhibitor, MCLA chemiluminescence	cell-free membranes		> 100000 nM
O=C(O)c1ccccc1[As](=O)(O)O	SMPD1 (Homo sapiens, UniProt P17405)	enzyme activity, inhibitor		pH 6.5, with: sphingomyelin substrate	1700 nM
CC(C)Cc1ccc(C(C)C(=O)OCc2ccc(OC(=O)OCC[Si](C)(C)C)cc2)cc1 (stereo not shown)	ache	enzyme activity, inhibitor, Ellman			1190 ± 200 nM
O=C1S/C(=C/c2cc([N+](=O)[O-])cc([N+](=O)[O-])c2O)C(=O)N1c1ccccc1	Salicylate synthetase, Irp9	salicylate production, inhibitor		pH 7.5, 25 °C, with: chorismate 2 µM	42000 ± 3000 nM
CC(C)C[C@@H]1NC(=O)[C@H](CCC(=O)O)NC(=O)[C@@H]2CCCN2C(=O)[C@H](Cc2c[nH]cn2)NC(=O)[C@H](CC(N)=O)NC(=O)[C@H](CC(C)C)NC(=O)[C@H](Cc2c[nH]cn2)NC(=O)[C@@H]2CSSC[C@H](NC(=O)CN)C(=O)N[C@@H](CSSC[C@@H](C(N)=O)NC1=O)C(=O)N[C@@H](CO)C(=O)N[C@@H](Cc1c[nH]cn1)C(=O)N1CCC[C@H]1C(=O)N[C@@H](C)C(=O)N2	Chrna3/Chrnb2/Chrna6 with beta3 subunit	ion current, antagonist, two-electrode voltage clamp	Xenopus laevis oocytes	with: 100 µM acetylcholine	1.04 nM
O=[N+]([O-])c1cc(S(=O)(=O)c2cc([N+](=O)[O-])c(O)c([N+](=O)[O-])c2)cc([N+](=O)[O-])c1O	Salicylate synthetase, Irp9	pyruvate production, inhibitor		25 °C, with: chorismate 10 µM	> 160000 nM
CC(C)C[C@@H]1NC(=O)[C@H](CCC(=O)O)NC(=O)[C@@H]2CCCN2C(=O)[C@H](Cc2c[nH]cn2)NC(=O)[C@H](CCCCCC(=O)O)NC(=O)[C@H](CC(C)C)NC(=O)[C@H](Cc2c[nH]cn2)NC(=O)[C@@H]2CSSC[C@H](NC(=O)CN)C(=O)N[C@@H](CSSC[C@@H](C(N)=O)NC1=O)C(=O)N[C@@H](CO)C(=O)N[C@@H](Cc1c[nH]cn1)C(=O)N1CCC[C@H]1C(=O)N[C@@H](C)C(=O)N2	Chrna3/Chrnb2/Chrna6 with beta3 subunit	ion current, antagonist, two-electrode voltage clamp	Xenopus laevis oocytes	with: 100 µM acetylcholine	50.3 nM
Cc1ccc2nc(Sc3ncnc4c3nnn4Cc3ccccc3)oc2c1	NOX5	enzyme activity, inhibitor, Amplex Red	cell-free membranes		1200 ± 100 nM
CC(C)(C)CCOC(=O)Cc1ccccc1Nc1c(Cl)cccc1Cl	ache	enzyme activity, inhibitor, Ellman			2690 ± 150 nM

Substance	target	test	system	conditions	IC50
Fc1ccc2nc(Sc3ncnc4c3nnn4Cc3ccccc3)oc2c1	NOX5	enzyme activity, inhibitor, Amplex Red	cell-free membranes		1500 ± 30 nM
CC[C@H](C)[C@H](NC(=O)[C@@H](NC(=O)[C@H](CC(=O)O)NC(=O)[C@H](CC(C)C)NC(=O)[C@H](CC(C)C)NC(=O)[C@H](CC(C)C)NC(=O)[C@H](CCCNC(=N)N)NC(=O)[C@H](CC(N)=O)NC(=O)[C@H](CC(N)=O)NC(=O)[C@H](C)NC(=O)[C@H](C)NC(=O)[C@H](CCC(N)=O)NC(=O)[C@H](CCC(N)=O)NC(=O)[C@H](CCCCN)NC(=O)[C@H](CCC(=O)O)NC(=O)[C@H](CCCCN)NC(=O)[C@H](CCC(=O)O)NC(=O)[C@H](CCC(N)=O)NC(=O)[C@H](CCCCN)NC(=O)[C@H](CCC(=O)O)NC(=O)[C@@H](NC(=O)[C@H](CCC(=O)O)NC(=O)[C@@H](NC(=O)[C@H](CCSC)NC(=O)[C@H](CCCCN)NC(=O)[C@H](CCCNC(=N)N)NC(=O)[C@H](CC(C)C)NC(=O)[C@H](CC(C)C)NC(=O)[C@H](Cc1c[nH]cn1)NC(=O)[C@H](N)Cc1ccccc1)[C@@H](C)CC)[C@@H](C)CC)[C@@H](C)O)C(N)=O	Corticotropin-releasing factor receptor 2/Corticotropin-releasing factor-binding protein, part alpha isoform (Homo sapiens, UniProt P24387+Q13324)	intracellular Ca2+ release, antagonist		with: CRF 3 µM	27 ± 1 nM
Cc1cccc2nc(Sc3ncnc4c3nnn4Cc3ccccc3)oc12	CYBB	enzyme activity, inhibitor, MCLA chemiluminescence	cell-free membranes		> 100000 nM
CC(C)C[C@@H]1NC(=O)[C@H](CCC(=O)O)NC(=O)[C@@H]2CCCN2C(=O)[C@H](Cc2c[nH]cn2)NC(=O)[C@H](CC(N)=O)NC(=O)[C@H]([C@@H](C)O)NC(=O)[C@H](CO)NC(=O)[C@@H]2CSSC[C@H](NC(=O)CN)C(=O)N[C@@H](CSSC[C@@H](C(N)=O)NC1=O)C(=O)N[C@@H](CO)C(=O)N[C@@H](Cc1c[nH]cn1)C(=O)N1CCC[C@H]1C(=O)N[C@@H](C)C(=O)N2	Chrna3/Chrnb2/Chrna6 with beta3 subunit	ion current, antagonist, two-electrode voltage clamp	Xenopus laevis oocytes	with: 100 µM acetylcholine	29 nM
CC(Cc1ccc(O)cc1)NCC(O)c1cc(O)cc(O)c1 (stereo not shown)	HTR2A (Homo sapiens, UniProt P28223)	binding			3400 nM
CC(C)Cc1cc(O)c(-c2cccc(Cl)c2)c(=O)[nH]1	inhA (Mycobacterium tuberculosis, UniProt P9WGR1)	enzyme activity, inhibitor			4300 ± 500 nM
CC(C)C[C@@H]1NC(=O)[C@H](CCC(=O)O)NC(=O)[C@@H]2CCCN2C(=O)[C@H](Cc2c[nH]cn2)NC(=O)[C@H](CC(=O)O)NC(=O)[C@H](CC(C)C)NC(=O)[C@H](Cc2c[nH]cn2)NC(=O)[C@@H]2CSSC[C@H](NC(=O)CN)C(=O)N[C@@H](CSSC[C@@H](C(N)=O)NC1=O)C(=O)N[C@@H](CO)C(=O)N[C@@H](Cc1c[nH]cn1)C(=O)N1CCC[C@H]1C(=O)N[C@@H](C)C(=O)N2	Chrna3/Chrnb2/Chrna6 with beta3 subunit	ion current, antagonist, two-electrode voltage clamp	Xenopus laevis oocytes	with: 100 µM acetylcholine	19.9 nM
CN(C(=O)Cc1ccc(Cl)c(Cl)c1)C1CCCCC1N1CCCC1 (stereo not shown)	PKD2L1 (Homo sapiens, UniProt Q9P0L9, F514A)	inhibitor			1000 nM
CC(C)C[C@@H]1NC(=O)[C@H](CCC(=O)O)NC(=O)[C@@H]2CCCN2C(=O)[C@H](Cc2c[nH]cn2)NC(=O)[C@H](CCCCC(=O)O)NC(=O)[C@H](CC(C)C)NC(=O)[C@H](Cc2c[nH]cn2)NC(=O)[C@@H]2CSSC[C@H](NC(=O)CN)C(=O)N[C@@H](CSSC[C@@H](C(N)=O)NC1=O)C(=O)N[C@@H](CO)C(=O)N[C@@H](Cc1c[nH]cn1)C(=O)N1CCC[C@H]1C(=O)N[C@@H](C)C(=O)N2	Neuronal acetylcholine receptor; alpha3/beta4 (Rattus norvegicus, UniProt P04757+P12392)	ACh-evoked current, antagonist, two-electrode voltage clamp	Xenopus laevis oocytes	with: ACh 300 µM	501 nM
CC(C)c1ccc2nc(Sc3ncnc4c3nnn4Cc3ccccc3)oc2c1	CYBB	enzyme activity, inhibitor, MCLA chemiluminescence	cell-free membranes		> 100000 nM
CN(CCCl)Cc1cc(Cl)c(NC2=NCCN2)c(Cl)c1	KCNJ2 (Homo sapiens, UniProt P63252)	inward current, inhibitor, automated patch clamp		3 min per concentration, room temperature, cumulative, at -120 mV	25000 nM
CC[C@H](C)[C@@H]1NC(=O)[C@H](CCC(=O)O)NC(=O)[C@@H]2CCCN2C(=O)[C@H](Cc2c[nH]cn2)NC(=O)[C@H](CC(N)=O)NC(=O)[C@H](CC(C)C)NC(=O)[C@H](Cc2c[nH]cn2)NC(=O)[C@@H]2CSSC[C@H](NC(=O)CN)C(=O)N[C@@H](CSSC[C@@H](C(N)=O)NC1=O)C(=O)N[C@@H](CO)C(=O)N[C@@H](Cc1c[nH]cn1)C(=O)N1CCC[C@H]1C(=O)N[C@@H](C)C(=O)N2	Chrna3/Chrnb2/Chrna6 with beta3 subunit	ion current, antagonist, two-electrode voltage clamp	Xenopus laevis oocytes	with: 100 µM acetylcholine	0.86 nM
CCC(C)C1NC(=O)/C(=C(/C)O)C1=O (stereo not shown)	AHA2 (Arabidopsis thaliana, UniProt P19456)	ATP hydrolysis, inhibitor	ER-enriched fraction	expressed in Saccharomyces cerevisiae	14300 nM
CCC(CC)O[C@@H]1C=C(C(=O)O)C[C@H](N=C(N)N)[C@H]1NC(=O)CF	Neuraminidase (Influenza B virus, UniProt C0LT34)	neuraminidase activity, inhibitor			3.1 nM
Cn1cnc2ncn(Cc3nc(CCc4ccc(Cl)cc4)no3)c(=O)c21	Trpa1 (Mus musculus, UniProt Q8BLA8)	calcium influx, antagonist, FlexStation calcium	HEK-293T transfected	with: CS gas at EC50	280 nM

A few entries again:
Substance	target	test	system	conditions	IC50
CC(C)Cc1cc(O)c(-c2cccc(Cl)c2)c(=O)[nH]1	inhA (Mycobacterium tuberculosis, UniProt P9WGR1)	enzyme activity, inhibitor			4300 ± 500 nM
CC(C)C[C@@H]1NC(=O)[C@H](CCC(=O)O)NC(=O)[C@@H]2CCCN2C(=O)[C@H](Cc2c[nH]cn2)NC(=O)[C@H](CC(=O)O)NC(=O)[C@H](CC(C)C)NC(=O)[C@H](Cc2c[nH]cn2)NC(=O)[C@@H]2CSSC[C@H](NC(=O)CN)C(=O)N[C@@H](CSSC[C@@H](C(N)=O)NC1=O)C(=O)N[C@@H](CO)C(=O)N[C@@H](Cc1c[nH]cn1)C(=O)N1CCC[C@H]1C(=O)N[C@@H](C)C(=O)N2	Chrna3/Chrnb2/Chrna6 with beta3 subunit	ion current, antagonist, two-electrode voltage clamp	Xenopus laevis oocytes	with: 100 µM acetylcholine	19.9 nM
